Assay results of several laboratories.
Each numbered part is a random draw from the data of one study; scales do not carry over between parts.

Sample 1
Target: Interferon regulatory factor 3, full length, phosphomimetic (IRF3, Homo sapiens, UniProt Q14653, residues 1-427, S386D/S396D/S398D/S402D/T404D/S405D)
Technique: protein-binding microarray
Molecule type: double-stranded DNA, one strand shown
Matrix: in vitro
Tested at: 2540 nM top
Setting: 60-bp whole probe
Together with: salmon DNA 0.4 mg/ml
Baseline: random background probes
Reading: higher = stronger binding
Shared flanks, not repeated: GCCTAGCAC … GTCTTGATTCGCTTGACGCTGCTG
Construct (chain): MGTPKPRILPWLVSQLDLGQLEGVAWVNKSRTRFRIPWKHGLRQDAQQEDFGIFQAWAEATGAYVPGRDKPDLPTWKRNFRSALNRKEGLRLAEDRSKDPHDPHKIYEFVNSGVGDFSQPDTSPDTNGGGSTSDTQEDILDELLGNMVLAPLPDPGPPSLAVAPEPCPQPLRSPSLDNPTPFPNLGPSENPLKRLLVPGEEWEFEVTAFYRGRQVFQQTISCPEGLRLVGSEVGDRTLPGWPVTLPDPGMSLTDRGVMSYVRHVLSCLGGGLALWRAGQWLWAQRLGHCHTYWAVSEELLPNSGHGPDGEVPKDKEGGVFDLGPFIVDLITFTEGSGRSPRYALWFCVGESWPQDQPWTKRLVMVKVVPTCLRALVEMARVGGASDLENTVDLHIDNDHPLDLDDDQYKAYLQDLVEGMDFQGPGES
Strand | fitted relative affinity [z-score]
GACGAACCGGGGTATCGAGACGTGCTA | -0.425
TTAGGTATCGGTATCGATTAGTGCTAG | 4.93
TTAGGACTGCGTCTCGGTTAGTGCTAG | -0.568
TCATTGTTCTCTCTGGCACTGTGCTAG | 0.302
GACGGCTTCGGGTTTCGGGACGTGCTA | 0.524
AACGATTTCGGGTTTCGAGACGTGCTA | 2.54
TTAGGTATCGGGTATCGGTTGGTGCTA | 1.74
TACGATATCGGGACTGGAGACGTGCTA | -0.0488
TCAATGTTCCCTATTTAACTGTGCTAG | 2.39
TCATCTTTCACTGCTCCAACTGTGCTA | 1.33
GAGAGTAGCTTTCTGAGGGCGTGCTAG | -0.189
TGCTTTCTTTAACTCATTTTGTGCTAG | 1.11
TTAGAACTGGGACTGGGTTAGTGCTAG | -0.922
TTAGGTTCCCTTTTACTTTAGTGCTAG | 7.63
TTAGGACTGGGAGTGGGTTAGTGCTAG | -0.867
TTAGATATCGGGACTCGATTAGTGCTA | 0.0467
ATAACTTTTTTTTTTCCCTGGTGCTAG | 1.06
GACGAACTTAGTATCGAGACGTGCTAG | 0.517
TCAAGTTTACCCATCTCCAGGTGCTAG | 1.42
TTAGGACTGGGCATCGGTTAGTGCTAG | -1.04

Sample 2
Target: Centromere-binding protein 1, full length, His-tagged (CBF1, Saccharomyces cerevisiae, UniProt P17106, residues 1-351)
Sequence of UniProt P17106 (whole entry, looked up): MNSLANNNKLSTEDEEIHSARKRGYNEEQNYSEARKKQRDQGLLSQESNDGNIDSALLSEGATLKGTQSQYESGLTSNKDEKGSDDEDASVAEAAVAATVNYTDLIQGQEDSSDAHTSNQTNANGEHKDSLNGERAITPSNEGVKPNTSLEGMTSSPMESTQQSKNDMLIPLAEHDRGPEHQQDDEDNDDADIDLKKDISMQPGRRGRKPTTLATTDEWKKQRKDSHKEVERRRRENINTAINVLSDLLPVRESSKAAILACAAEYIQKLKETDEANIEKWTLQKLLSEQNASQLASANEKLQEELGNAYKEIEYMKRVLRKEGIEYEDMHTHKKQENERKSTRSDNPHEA
Technique: competition protein-binding microarray
Molecule type: double-stranded DNA, one strand shown
Matrix: in vitro
Tested at: 2 µM
Setting: whole 60-bp probe, lowest competitor level
Together with: Pho4 competitor, 0.05 µM
Reading: higher = stronger binding
Strand | fluorescence intensity [a.u.]
GTCTTGTCTCATTGGTGTGTGGGTGTCCCCACTTCAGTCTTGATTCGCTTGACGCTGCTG | 71.2
TGCGCAACAACTTGATTAGTGGGTGTATGTCTAGAAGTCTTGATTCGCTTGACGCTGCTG | 70.9
TGATGAAATCTCTGTGACCTGGAGCATCAATAACGGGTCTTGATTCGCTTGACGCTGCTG | 84.1
CGCCATTACGACAATCACATGGTTGTTAAATCGCGGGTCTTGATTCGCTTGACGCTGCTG | 882
TTAACCCACAAACGTCAGGTGTACAATCGCAAATCCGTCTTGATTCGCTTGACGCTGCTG | 221
CGTCCTAGTGATTGCGCTGTGGGTGCCATGAGGAAGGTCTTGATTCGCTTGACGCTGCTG | 64
CGTCCTAGCGATTGAGTAGTGGGTGCCATGAGGAAGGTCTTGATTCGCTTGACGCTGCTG | 70
CTAACGAAGGTTTGGTGAGTGGGTGACAAGCCAAGTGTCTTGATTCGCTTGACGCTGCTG | 77.5
CATACCCAACCTTGGCCCGTGGGTGAAGATATTTGTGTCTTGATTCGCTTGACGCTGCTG | 71.6
AAGGCAACTTCCCTACACGTTGAAGTGCCAATTTTTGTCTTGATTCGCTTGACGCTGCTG | 70.9
GTCCCACCAGATTTGCACGTTTTGTTACCCCAGATAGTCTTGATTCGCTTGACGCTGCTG | 142
ATTTCCCACTTCAACAACGTGCAATAATGGCTCAATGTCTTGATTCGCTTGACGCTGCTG | 126
GTCTTGTCTCATTGCCCTGTGGGTGTCCCCACTTCAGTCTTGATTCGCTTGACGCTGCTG | 71.3
TCACCCAAAACATTGATCATGCCTGAAGGTCCTAGGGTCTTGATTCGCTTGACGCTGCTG | 85.9
GAATGTATGGATCGTCAGGTGGGCATTTGTTAACTTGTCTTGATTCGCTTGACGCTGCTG | 169
CGCGGAATGACTGGACCCGTGGGTAATCGCAGGGGAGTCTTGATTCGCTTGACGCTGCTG | 69.3
AATCCTATTAAATTGCGCGTGGGAGTTTAAATGGGTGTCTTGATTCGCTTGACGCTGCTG | 109
AAATTACTAAGTTGCTCGGTGGGTGACGCCGTATGAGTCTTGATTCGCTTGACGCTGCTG | 59.4

Sample 3
Target: TAR DNA-binding protein 43, full length, His tag (TARDBP, Homo sapiens, UniProt Q13148, residues 1-414)
Technique: RNA Bind-n-Seq
Molecule type: RNA
Matrix: in vitro
Tested at: 20 nM
Setting: 6-mer, flanks averaged, single round
Together with: 150 mM LiCl
Baseline: input library
Reading: higher = stronger binding
Strand | 6-mer enrichment (R)
UUUCAC | 0.94
UCUACG | 0.819
AAUCCA | 0.82
GGGUAU | 1.19
UUUCGC | 0.961
UGAAGG | 1.06
UAAGCG | 0.926
GUUCAU | 0.934
AGUUCU | 0.869
UCCGGU | 0.903
UCUGAG | 0.891
GAUGGG | 1.26
GCGUAG | 1.04
GUUGGA | 1.12
GAUUAA | 0.86
GGGAGA | 1.18
GUCACC | 0.921
UACACG | 0.845
UGAUGU | 1.18
UCUAUC | 0.875
UGUCUC | 0.936
AUCAGU | 0.88
UCUACU | 0.871
UCGCUG | 0.891
CUCUUC | 0.887

Sample 4
Target: Histone acetyltransferase KAT6A, winged helix 1, GST fusion (KAT6A, Homo sapiens, UniProt Q92794, residues 1-85)
Technique: protein binding microarray
Molecule type: double-stranded DNA, one strand shown
Matrix: in vitro
Tested at: not given
Setting: 8-mer, flanks averaged, mean of 2 arrays, mostly near background
Baseline: not given
Reading: higher = stronger binding
Residues (chain): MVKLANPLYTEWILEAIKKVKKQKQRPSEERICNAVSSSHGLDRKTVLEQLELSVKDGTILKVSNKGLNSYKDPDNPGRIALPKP
Strand | E-score
CGCTTAGC | 0.294
ATTGGAAG | -0.127
ACCGCCCT | -0.0213
ACCCCCCG | 0.31
CACCGGGA | 0.172
GAATACAC | -0.132
ATTCCGGC | 0.169
ACATGCGC | 0.304
AAATTTTC | -0.267
ATGCGGTA | 0.258
GCGAGAGA | -0.0445
CGCACATC | 0.303
ATAAAGAA | -0.1
TCCGGCCA | 0.137
AACGTAAT | -0.0864
CCCGCAAC | 0.277

Sample 5
Target: Sal-like protein 4, full length isoform B (SALL4, Homo sapiens, UniProt Q9UJQ4-2, residues 1-616)
Technique: universal PBM
Molecule type: double-stranded DNA, one strand shown
Matrix: in vitro
Tested at: not given
Setting: 8-mer, flanks averaged, mean of replicates
Reading: higher = stronger binding
Strand | E-score
CCATTACC | -0.126
AGGGAGTG | -0.203
GAACTCTA | -0.0715
AAATTCTA | 0.234
CCAAAAAA | 0.305
CTTCGAGC | -0.236
GCACCACC | -0.293
CGGGATGA | -0.199
AATAGCGA | 0.171
AGTACATC | 0.172
ACGACTGG | -0.205
CTCCGTGC | -0.316
AAGGCCTA | -0.113
AATTCATA | 0.403
ATAGCCCA | 0.0702
GGGTTAAA | -0.0496
TCATGCAA | 0.184
AGACACCG | -0.216
GCATCCTA | -0.031
TCTCGCAA | 0.032
ACATGCGC | -0.0837
GCAGACAA | -0.0105
GGCAAACA | -0.0873
ACGTGATG | 0.0398
CTGCTAAG | -0.181
